Assay results pooled from the literature.
Each numbered part is a random draw from the data of one study; scales do not carry over between parts.

Study 1 — technique: protein binding microarray; molecule type: double-stranded DNA, one strand shown; sample: in vitro; concentration: not given; baseline: not given; reading: higher = stronger binding
Target: Histone acetyltransferase KAT6A, both winged helices, GST fusion (KAT6A, Homo sapiens, UniProt Q92794, residues 1-181)
Setting: 8-mer, flanks averaged, mean of 2 arrays, mostly near background
Residues (chain): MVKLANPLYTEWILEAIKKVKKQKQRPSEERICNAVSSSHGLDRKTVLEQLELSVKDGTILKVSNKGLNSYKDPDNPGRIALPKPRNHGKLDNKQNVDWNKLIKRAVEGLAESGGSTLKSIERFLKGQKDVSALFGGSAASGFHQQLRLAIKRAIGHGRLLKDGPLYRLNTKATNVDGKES
| Sequence | E-score |
| --- | --- |
| TACAGTGA | -0.141 |
| ATTCAAAA | 0.0786 |
| CGCTTATA | 0.18 |
| AACTGTAC | 0.0237 |
| CTCATAGC | -0.0864 |
| CTGCCAAC | -0.152 |

Study 2 — technique: RNAcompete; molecule type: RNA; sample: in vitro; concentration: 20 nM; setting: 7-mer, probes averaged, single round; baseline: mean of 7-mers; reading: higher = stronger binding
Target: PABPC1L2, full length, GST fusion (mouse, UniProt A0ABA7IW68)
Target sequence (chain): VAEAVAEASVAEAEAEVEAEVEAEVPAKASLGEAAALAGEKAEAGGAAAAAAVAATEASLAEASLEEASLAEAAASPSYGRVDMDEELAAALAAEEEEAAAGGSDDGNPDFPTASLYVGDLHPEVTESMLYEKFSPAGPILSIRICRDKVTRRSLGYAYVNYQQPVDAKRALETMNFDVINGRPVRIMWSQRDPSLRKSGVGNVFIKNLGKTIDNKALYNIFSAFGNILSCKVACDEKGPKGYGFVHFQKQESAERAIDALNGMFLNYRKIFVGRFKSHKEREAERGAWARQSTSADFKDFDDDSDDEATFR
| Sequence | 7-mer Z-score |
| --- | --- |
| CACUAAG | -0.05 |
| UGACUGC | -0.286 |
| ACCUAUG | -0.117 |
| GUAAGAA | 0.138 |
| CCUCUAC | -0.356 |
| ACCAAGU | -0.115 |

Study 3 — technique: RNA Bind-n-Seq; molecule type: RNA; sample: in vitro; concentration: 200 nM; setting: whole 134-nt RNA, ends assumed; together with: 150 mM KCl; baseline: input library; reading: higher = stronger binding
Target: Ras GTPase-activating protein-binding protein 1, full length (G3BP1, Homo sapiens, UniProt Q13283)
Chain of UniProt Q13283 (whole entry, looked up): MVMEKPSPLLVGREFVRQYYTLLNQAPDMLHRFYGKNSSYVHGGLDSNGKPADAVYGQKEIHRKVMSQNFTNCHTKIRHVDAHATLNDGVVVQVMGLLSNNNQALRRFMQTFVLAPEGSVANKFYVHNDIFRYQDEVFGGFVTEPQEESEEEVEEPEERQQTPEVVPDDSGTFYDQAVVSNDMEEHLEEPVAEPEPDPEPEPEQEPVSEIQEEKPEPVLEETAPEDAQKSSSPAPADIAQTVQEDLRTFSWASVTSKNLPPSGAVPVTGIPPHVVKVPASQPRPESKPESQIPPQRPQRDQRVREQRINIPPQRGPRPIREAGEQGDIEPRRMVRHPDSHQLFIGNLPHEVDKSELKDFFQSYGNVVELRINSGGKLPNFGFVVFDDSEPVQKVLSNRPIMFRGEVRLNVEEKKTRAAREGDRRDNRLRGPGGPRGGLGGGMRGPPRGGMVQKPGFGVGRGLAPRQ
| Sequence | log2 enrichment |
| --- | --- |
| GGGAGUUCUACAGUCCGACGAUCAAGUCCUGUGCUACACAUCGUAUGUACCGAAUCGGAAAAAAAGGAGGUUUUUUUGGAAAGUAUUAUGUUACGCCGUUCGGAUCUGCACUUUGGAAUUCUCGGGUGUCAAGG | -1.15 |
| GGGAGUUCUACAGUCCGACGAUCCACAGACAACACGCACCCACACAGACACAGAGGGAAGGGGUUGGGAUGGGGACCGGGUGCACAGCAGGGCGGGGUAGGACCCCAGCCCCUUGGAAUUCUCGGGUGUCAAGG | 1.9 |
| GGGAGUUCUACAGUCCGACGAUCAAGUCCUGUGCUACACAUCGUAUGUACCGAAUCGGGGCCCCGGGCCCCGGGCCCCGGAAAGUAUUAUGUUACGCCGUUCGGAUCUGCACUUGGAAUUCUCGGGUGUCAAGG | -1.14 |
| GGGAGUUCUACAGUCCGACGAUCUUUGGCAAUGAGAUCUAAACCAGACAAAGACCUCCUUAUGGAAGAAGAUGACAUGGCCUUGGCAAAUGUAGUCAUGCAGGAAGCUCAGAAUGGAAUUCUCGGGUGUCAAGG | -0.837 |

Single results of other studies
| Substance | target | assay | test system | conditions | scale | endpoint | result |
| --- | --- | --- | --- | --- | --- | --- | --- |
| PhoQ, residues 284 288 289 292 302 303 SSLVEF | PhoP, residues 12 14 15 18 19 IFFTR (Escherichia coli, UniProt P23836) | Sort-seq, measured: YFP reporter | E. coli | PhoQ-PhoP variant library, together with: 10 µM Mg2+ | baseline: high Mg2+ state, higher = stronger signaling | fold induction | 8.97 |

Repeated from above (study 2):
| Sequence | 7-mer Z-score |
| --- | --- |
| ACCUAUG | -0.117 |
| GUAAGAA | 0.138 |
| CCUCUAC | -0.356 |
